Assay results of several laboratories.
A part holds a random share of what one study measured.

Set 1 — method: RNA Bind-n-Seq; form: RNA; medium: in vitro; tested at: 365 nM; relative to: no-protein control; reading: higher = stronger binding
Target: RNA binding protein fox-1 homolog 2, RRM domain, GST-SBP tag (RBFOX2, Homo sapiens, UniProt O43251-10, residues 100-194)
Notes: natural RNA segment, single round, ends assumed
Residues (chain): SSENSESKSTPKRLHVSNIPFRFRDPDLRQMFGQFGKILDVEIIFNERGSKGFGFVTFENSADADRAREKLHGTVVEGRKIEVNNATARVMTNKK
| Oligonucleotide | RBNS enrichment (R) |
| --- | --- |
| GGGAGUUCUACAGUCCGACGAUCGCUUAUUCCGUGUAGAUGCUUGUUUUUGUCCCUGCCUCCGAGGAACUUGUUCAUGAUUGUGCUCUGAACUGCAUGGGGAGUGUGGGGUGCUGCCUUGCUCGCUGUUAUAUUGGAAUUCUCGGGUGCCAA | 28.3 |
| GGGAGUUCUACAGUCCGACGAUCCAGCCGGAGUUGAGAAGGAGUAACAGGUCUGAGGCUGUCCCGGAGAACCACCCAUCCCAGCUCAGCCCCAAGAACCAACCAAAGAGCCAGUCAAAAGCAAGCUGGGUUUGUGGAAUUCUCGGGUGCCAA | 0.441 |
| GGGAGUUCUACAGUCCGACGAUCUCUUCCUGGCAAACCUGGACUGGAAGGGCCAUUUGCAGCACUGUCCUGGAGCUAAUACACUGUUUCACUGCCUCUGCCAUAUAAUGAUGCCAGCACUAGCCAGCUGGUGGUGGAAUUCUCGGGUGCCAA | 0.347 |
| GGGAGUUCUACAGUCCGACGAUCCUGAAGUUACCCUCUGAAAAAUAUUUUGUCUCUCUGACUUGAUUUCUAUAAAUGCUUUUAAAAACAAGUGAAGCCCCUCUUUAUUUCAUUUUGUGUUAUUGUGAUUGCUGUGGAAUUCUCGGGUGCCAA | 0.907 |
| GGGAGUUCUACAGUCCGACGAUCGCUGAUUACAAAGGGGAAGAGUUGAACAGACAUCAGGGGCCGAUGAAACCAAAGGACUAGGAGUCAGGAGAACAAGUCAGGGAUUAGGAGACAGCGGUUUGGUUUAUUGUUGGAAUUCUCGGGUGCCAA | 0.921 |
| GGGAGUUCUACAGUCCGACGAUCCCUCUCCCAGCGUUUCUCCGGUUUGCCAAUCCUCUUAAGUAUUCCUGUCUCCAAAGGACCGGCUCUCCAUGGCUCCUGCGCCUCGUGCUUUCCGCGUACAGAAGUGCUUGUGGAAUUCUCGGGUGCCAA | 0.328 |
| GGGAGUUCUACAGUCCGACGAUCGGAUCCAGCUCCUUCCCCUUCGGGUCUGGGGUGCAGACAUGGCAAGGCUCAAGGCUGUGCAGGCACAUAGGCUGGUGGCCUUGGGCCUUGGGGCUCAGCCACAGCCUGACUGGAAUUCUCGGGUGCCAA | 0.314 |
| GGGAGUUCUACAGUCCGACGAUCUCCCUAGAAAUUGGCUCACCUUGGGAAACCCAGGGAAAGAAUCAGCAGGUUCUCUGCCCUCCCUAGGGGUUGGGGAAGGACCCACCCCGGUCAGCACAGUGCCUUUUCCUUGGAAUUCUCGGGUGCCAA | 0.336 |
| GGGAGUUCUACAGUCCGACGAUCGAUGCAGAAUGAGGUAGCAUUCGAGUUGGAACCAAGAAGACUCUAAUGAUGUAUGCCCACCUUUCAUUUCUGCUAUUCAAGUUUUGACUAUGUAUCUAGCUUGUGCAAAAUGGAAUUCUCGGGUGCCAA | 12.3 |
| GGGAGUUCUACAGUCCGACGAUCAGGAAACUCCGCUGCCGACCCUGCCUGAGCGCGGGAGCCUGAGGACCGGGUGGAGGCGGUGGGGACCCAGCCGCGCGCCGGGAGCGCUCCCCGGAAUGAGCCGCCCCACCUGGAAUUCUCGGGUGCCAA | 21.2 |
| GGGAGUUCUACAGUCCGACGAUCGGGAACGCCUCUCCCCUCCUUGUCCUUUCCAGUGGGUCUCAUCCCUUAUCUCGCUCUGGUGUUCACAGGCGGCAUGUGUUCCAGCCGACGAUCGCAUCUUGUGUCGCUGAUGGAAUUCUCGGGUGCCAA | 4.83 |
| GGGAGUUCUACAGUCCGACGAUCCGAGGCCUUUGCCUGGGUCUGAAGGUCUUGGCCAGAGGAACACCAUCAUCAGUCAAGGGGUCUGGCCGCAGGCUCCCCUGUGAGCAAAUGCAGGGAAUCCGAGCAGAACAUGGAAUUCUCGGGUGCCAA | 0.467 |

Set 2 — method: universal PBM; form: double-stranded DNA, one strand shown; medium: in vitro; tested at: 600 nM; reading: higher = stronger binding
Target: Sal-like protein 4, full length isoform A (SALL4, Homo sapiens, UniProt Q9UJQ4, residues 1-1053)
Chain of UniProt Q9UJQ4 (whole entry, looked up): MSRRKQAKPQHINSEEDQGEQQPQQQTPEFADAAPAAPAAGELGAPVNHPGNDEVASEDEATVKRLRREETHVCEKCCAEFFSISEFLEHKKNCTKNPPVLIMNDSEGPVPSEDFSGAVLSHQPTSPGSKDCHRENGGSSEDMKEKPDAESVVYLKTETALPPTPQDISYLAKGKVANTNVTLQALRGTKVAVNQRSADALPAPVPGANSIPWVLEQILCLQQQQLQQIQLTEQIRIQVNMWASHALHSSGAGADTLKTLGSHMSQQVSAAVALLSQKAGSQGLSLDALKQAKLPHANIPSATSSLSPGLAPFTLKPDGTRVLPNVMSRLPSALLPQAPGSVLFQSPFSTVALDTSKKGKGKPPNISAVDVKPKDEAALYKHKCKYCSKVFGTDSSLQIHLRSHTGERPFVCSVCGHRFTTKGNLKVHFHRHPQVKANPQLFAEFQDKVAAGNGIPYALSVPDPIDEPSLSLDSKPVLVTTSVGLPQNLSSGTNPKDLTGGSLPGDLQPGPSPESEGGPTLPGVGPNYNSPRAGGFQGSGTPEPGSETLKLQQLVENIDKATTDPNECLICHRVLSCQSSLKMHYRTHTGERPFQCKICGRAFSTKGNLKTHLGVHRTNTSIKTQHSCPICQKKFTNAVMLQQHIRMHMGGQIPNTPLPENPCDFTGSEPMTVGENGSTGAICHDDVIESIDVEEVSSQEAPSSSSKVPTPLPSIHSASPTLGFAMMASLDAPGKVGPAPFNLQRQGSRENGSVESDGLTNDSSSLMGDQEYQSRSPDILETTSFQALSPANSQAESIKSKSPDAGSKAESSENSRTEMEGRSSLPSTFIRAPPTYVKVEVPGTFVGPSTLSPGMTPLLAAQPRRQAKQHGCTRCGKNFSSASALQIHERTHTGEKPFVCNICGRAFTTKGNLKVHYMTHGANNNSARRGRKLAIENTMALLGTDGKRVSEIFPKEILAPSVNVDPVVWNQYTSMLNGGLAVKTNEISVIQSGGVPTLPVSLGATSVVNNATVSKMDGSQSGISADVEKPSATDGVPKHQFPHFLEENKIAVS
Notes: 8-mer, flanks averaged, mean of replicates
| Oligonucleotide | E-score |
| --- | --- |
| CTCTGTTC | 0.042 |
| ATGTGAGG | 0.0372 |
| CTGGCTTC | -0.226 |
| ACTGAGTG | -0.0575 |
| CCGACTCA | -0.0917 |
| CACCTTAA | 0.125 |
| TGCCCGAA | -0.0581 |
| AAATACGA | 0.28 |
| GGCAGGCC | -0.391 |
| TACCTAGA | 0.118 |
| AAATTACC | 0.319 |
| CTACCCAA | 0.068 |
| AAGGACGA | -0.0758 |
| ACGCGGCC | -0.241 |
| CGGGGTAA | 0.0117 |
| GCGTTCCC | -0.254 |

Set 3 — method: protein-binding microarray; form: double-stranded DNA, one strand shown; medium: in vitro; tested at: not given; reading: higher = stronger binding
Target: Transcriptional repressor CTCF (CTCF, Homo sapiens, UniProt P49711, residues 1-727, full length assumed)
Chain of UniProt P49711 (whole entry, looked up): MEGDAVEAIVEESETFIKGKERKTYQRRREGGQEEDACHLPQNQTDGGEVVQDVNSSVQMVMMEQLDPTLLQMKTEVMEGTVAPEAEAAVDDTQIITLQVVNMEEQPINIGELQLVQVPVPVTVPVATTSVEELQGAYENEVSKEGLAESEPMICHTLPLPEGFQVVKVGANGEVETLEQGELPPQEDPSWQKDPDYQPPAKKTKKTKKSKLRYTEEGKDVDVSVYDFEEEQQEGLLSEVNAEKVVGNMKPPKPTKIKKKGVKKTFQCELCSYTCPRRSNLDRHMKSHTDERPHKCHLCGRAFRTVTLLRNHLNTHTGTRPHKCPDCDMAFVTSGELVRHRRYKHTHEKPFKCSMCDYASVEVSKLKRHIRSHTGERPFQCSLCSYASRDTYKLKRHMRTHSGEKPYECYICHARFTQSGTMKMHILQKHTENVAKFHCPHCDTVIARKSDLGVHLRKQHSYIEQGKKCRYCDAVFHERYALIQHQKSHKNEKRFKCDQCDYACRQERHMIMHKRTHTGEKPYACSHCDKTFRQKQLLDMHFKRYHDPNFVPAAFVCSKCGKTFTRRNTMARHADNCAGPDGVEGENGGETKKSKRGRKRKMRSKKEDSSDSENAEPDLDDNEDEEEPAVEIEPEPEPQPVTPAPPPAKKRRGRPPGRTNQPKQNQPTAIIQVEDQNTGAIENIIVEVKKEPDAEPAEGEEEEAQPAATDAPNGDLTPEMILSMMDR
Notes: k-mer, scored over probes, only values ≥0.25
| Oligonucleotide | E-score |
| --- | --- |
| AAAACACC | 0.287 |
| AGATAATG | 0.281 |
| ACTACTAT | 0.258 |
| TGTACACA | 0.26 |
| ATGAATGC | 0.299 |
| ATTATACC | 0.316 |
| GTAAATAC | 0.275 |
| CTTGCGCC | 0.361 |
| AGTGTAAT | 0.296 |
| GCCGCATA | 0.266 |
| ATAGTTGC | 0.287 |
| AAAATGAT | 0.404 |
| GTTTCCTA | 0.27 |
| CGCAAACA | 0.279 |
| GTAAACAA | 0.271 |
| ACAAAAAA | 0.302 |

Set 4 — method: RNA Bind-n-Seq; form: RNA; medium: in vitro; tested at: 1 µM; notes: whole 134-nt RNA, ends assumed; added: 150 mM KCl; relative to: input library; reading: higher = stronger binding
Target: Ras GTPase-activating protein-binding protein 1, C-terminal RGG region (G3BP1, Homo sapiens, UniProt Q13283)
Chain of UniProt Q13283 (whole entry, looked up): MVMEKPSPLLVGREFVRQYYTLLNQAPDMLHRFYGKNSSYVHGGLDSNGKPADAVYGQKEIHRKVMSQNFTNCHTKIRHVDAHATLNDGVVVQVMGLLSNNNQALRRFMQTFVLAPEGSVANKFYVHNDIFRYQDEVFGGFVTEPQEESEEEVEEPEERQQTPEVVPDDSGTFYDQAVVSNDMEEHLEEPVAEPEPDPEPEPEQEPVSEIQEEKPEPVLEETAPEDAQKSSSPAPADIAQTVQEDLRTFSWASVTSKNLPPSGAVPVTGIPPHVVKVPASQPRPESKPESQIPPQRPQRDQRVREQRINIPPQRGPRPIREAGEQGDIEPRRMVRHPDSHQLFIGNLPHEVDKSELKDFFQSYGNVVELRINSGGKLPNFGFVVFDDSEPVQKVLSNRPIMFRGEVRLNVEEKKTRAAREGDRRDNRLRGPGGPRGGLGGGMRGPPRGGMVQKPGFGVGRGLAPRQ
| Oligonucleotide | log2 enrichment |
| --- | --- |
| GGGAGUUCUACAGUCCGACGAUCUGGCCCUGGUGGCAUGCGGGGAGGAAGAGGUGGCCUCAUGGAUCGUGGUGGUCCCGGUGGAAUGUUCAGAGGUUGCCGUGGUGGAGACAGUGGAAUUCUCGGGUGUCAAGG | 3 |
| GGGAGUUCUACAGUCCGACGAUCACCAUGCAGGUGGGCAUCUUUGGGAAGUGGGGCAAGUGGGGGAUAGGGAGGGGGGUAACACUUUGGGAACAGGUGGUCCCAGGUCGUUUCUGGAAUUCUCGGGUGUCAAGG | -1.09 |
| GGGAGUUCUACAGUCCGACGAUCACCAUGCAGGUGGGCAUCUUUGGGAAGUGGGGCAAGGGGGGGAUAGGGAGGGGGGUAACACUUUGGGAACACGUGGUCCCAGGUCGUUUCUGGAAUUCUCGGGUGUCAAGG | 2.9 |
| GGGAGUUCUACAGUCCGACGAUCAGUCCUGUGCUACACAUCGUAUGUACCGAAUCGGGGUUUUUGGGGAAAGGGGUGGGGAAAGUAUUAUGUUACGCCGUUCGGAUCUGCACUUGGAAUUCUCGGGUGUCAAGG | 2.72 |
| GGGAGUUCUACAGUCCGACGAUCUGGGAGGUGGAUUUUGUUUAUUUUUUUAGCUCAUUUCGAGGGGUGGGAAUUUUUUUUUAAUAUGUGUCAUGAAUAAAGUUGUUUUUGAAAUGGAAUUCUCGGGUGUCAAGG | 3.73 |
| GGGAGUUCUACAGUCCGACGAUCCUCAAGUCCUGUGCUACACAUCGUAUGUACCGAAUCGGAGGUUUUUUUGGUGGAAAGUAUUAUGUUACGCCGUUCGGAUCUGCACUUCCAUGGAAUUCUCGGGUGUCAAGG | -1.22 |
| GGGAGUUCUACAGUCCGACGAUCACCAUGCAGGUGGGCAUCUUUGGGAAGUGGGGCAAGGUGGGGAUAGGGAGGGGGGUAACACUUUGGGAACAGGUGGUCCCAGGUCGUUUCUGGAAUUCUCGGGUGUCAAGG | -0.468 |
| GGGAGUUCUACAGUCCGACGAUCUCCUGUGCUACACAUCGUAUGUACCGAAUCGGGAAAAAAAGGGUUUUUUUGGGUUUGGGAAAGUAUUAUGUUACGCCGUUCGGAUCUGCAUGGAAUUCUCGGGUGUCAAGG | -0.915 |
| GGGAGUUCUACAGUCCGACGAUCAAGUCCUGUGCUACACAUCGUAUGUACCGAAUCGGGAAAGGGAAAGGGGAAAGGGGAAAGUAUUAUGUUACGCCGUUCGGAUCUGCACUUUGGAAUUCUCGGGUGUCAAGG | 1.38 |
| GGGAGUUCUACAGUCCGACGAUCACCAUGCAGGUGGGCAUCUUUGGGAAGUGGGGCAAGGGGGGGAUAGGGAGGGGGGUAACACUUUGCGAACAGGUGGUCCCAGGUCGUUUCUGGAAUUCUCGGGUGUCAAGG | 2.26 |

Some of these lines once more (set 3):
| Oligonucleotide | E-score |
| --- | --- |
| CTTGCGCC | 0.361 |
| AGTGTAAT | 0.296 |
| GCCGCATA | 0.266 |
| ATAGTTGC | 0.287 |
| AAAATGAT | 0.404 |
| GTTTCCTA | 0.27 |
